Measured values from different studies.
Protocols differ between the studies behind these lines. ± gives the spread as reported.
SLCO1B3: Solute carrier organic anion transporter family member 1B3 (SLCO1B3, Homo sapiens, UniProt Q9NPD5)
UniProt Q9NPD5, sequence (whole entry, looked up): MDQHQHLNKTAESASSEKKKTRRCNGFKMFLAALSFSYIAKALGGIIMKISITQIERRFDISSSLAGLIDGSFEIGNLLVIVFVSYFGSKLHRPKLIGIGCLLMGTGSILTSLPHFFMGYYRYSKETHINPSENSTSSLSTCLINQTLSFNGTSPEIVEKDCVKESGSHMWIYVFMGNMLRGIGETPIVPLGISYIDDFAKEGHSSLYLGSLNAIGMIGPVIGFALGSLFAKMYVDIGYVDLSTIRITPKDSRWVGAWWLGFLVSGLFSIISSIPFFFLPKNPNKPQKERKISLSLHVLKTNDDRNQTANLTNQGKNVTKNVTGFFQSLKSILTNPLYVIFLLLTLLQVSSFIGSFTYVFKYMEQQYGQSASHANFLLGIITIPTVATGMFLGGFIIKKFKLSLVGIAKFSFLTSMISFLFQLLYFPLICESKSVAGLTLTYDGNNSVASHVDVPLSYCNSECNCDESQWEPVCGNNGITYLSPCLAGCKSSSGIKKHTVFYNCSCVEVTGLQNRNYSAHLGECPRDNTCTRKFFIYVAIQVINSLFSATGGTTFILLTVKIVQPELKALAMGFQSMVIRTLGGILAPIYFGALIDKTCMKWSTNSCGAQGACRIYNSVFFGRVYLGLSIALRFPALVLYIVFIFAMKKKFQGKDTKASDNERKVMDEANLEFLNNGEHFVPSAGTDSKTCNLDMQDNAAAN
ABCG2: Broad substrate specificity ATP-binding cassette transporter ABCG2 (ABCG2, Homo sapiens, UniProt Q9UNQ0)
UniProt Q9UNQ0, sequence (whole entry, looked up): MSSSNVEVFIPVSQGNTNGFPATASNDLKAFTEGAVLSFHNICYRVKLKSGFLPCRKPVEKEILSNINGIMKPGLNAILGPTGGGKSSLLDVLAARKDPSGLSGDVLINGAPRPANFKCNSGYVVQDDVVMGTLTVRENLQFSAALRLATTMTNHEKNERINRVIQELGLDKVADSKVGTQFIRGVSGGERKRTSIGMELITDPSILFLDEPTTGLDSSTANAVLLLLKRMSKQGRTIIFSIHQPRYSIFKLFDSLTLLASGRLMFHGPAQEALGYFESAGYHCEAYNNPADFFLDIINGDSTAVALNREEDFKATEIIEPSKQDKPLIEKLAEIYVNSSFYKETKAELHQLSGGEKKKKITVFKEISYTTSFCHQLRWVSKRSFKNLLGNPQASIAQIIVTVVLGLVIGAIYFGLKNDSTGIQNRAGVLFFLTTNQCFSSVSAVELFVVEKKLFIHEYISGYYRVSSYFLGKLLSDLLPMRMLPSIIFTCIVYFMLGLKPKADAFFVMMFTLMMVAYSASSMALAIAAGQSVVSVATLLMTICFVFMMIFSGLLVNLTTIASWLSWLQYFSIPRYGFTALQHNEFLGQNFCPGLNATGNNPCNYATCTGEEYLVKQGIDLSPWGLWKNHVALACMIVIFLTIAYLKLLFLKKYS

| SMILES | tested on | test | system | conditions | scale | quantity | result |
| --- | --- | --- | --- | --- | --- | --- | --- |
| N#C[C@@H]1CCCN1C(=O)CNC(=O)c1ccnc2ccc(OCCCN3CCN(C(=O)CCc4ccc5c(c4)CN4CCN6CC(=O)[O][68Ga-]([O]C(=O)C4)([O]5)[O]c4ccc(CCC(=O)N5CCN(CCCOc7ccc8nccc(C(=O)NCC(=O)N9CCC[C@H]9C#N)c8c7)CC5)cc4C6)CC3)cc12 | U-87 MG tumour model |  | host not given, stomach | 2 h, tumour-bearing |  | tracer uptake | 1.91 %ID/g |
| Cc1cc(C)nc(NC(=S)N2CCN(c3ccc(C(F)(F)F)cn3)CC2)c1 | MDCK-MDR1 |  |  |  |  | Papp B-A | 8.9 ± 0.9 ×10⁻⁶ cm/s |
| CCCCCC(=O)N[C@@H](Cc1ccccc1)C(=O)N[C@@H](CCCC)C(=O)N[C@@H](Cc1ccccc1)C(=O)[C@@]1(C)CO1 | Trypanosoma brucei brucei |  | HepG2 cells, Lister 427 |  | baseline: HepG2 CC50 over T. brucei EC50 | selectivity index | < 1 |
| O=C(c1ccc(OCCN2CCCCC2)cc1)c1c(-c2ccc(O)cc2)sc2cc(O[C@@H]3O[C@H](C(=O)O)[C@@H](O)[C@H](O)[C@H]3O)ccc12 | SLCO1B3 | substrate | HEK293 expressing SLCO1B3 | pH 7.4 |  | intrinsic clearance | 1.81 µL/min/mg protein |
| N#C[C@@H]1CC(F)(F)CN1C(=O)CNC(=O)c1ccnc2c(NC(=O)[C@@H](N)CCCCNC(=O)CCOCCOCCOCCOCCOCCOCCNC(=O)CN3CCN(CC(=O)[O-])CCN(CC(=O)[O-])CCN(CC(=O)[O-])CC3)cccc12.[177Lu+3] | U-87 MG tumour model |  | host not given, muscle | 1 h, tumour-bearing |  | tracer uptake | 0.66 %ID/g |
| CNC(=O)C1CCCN(C(=O)C2CC3CCC2N3C(=O)[C@@H]2C[C@@H](O)CN2C(=O)NCc2cccc(Cl)c2F)C1 (mixture of isomers) | CYP3A4 (human) | inhibitor, time-dependent inhibition |  | 5.56 µM, preincubated with NADPH, together with: testosterone substrate | baseline: negative control | remaining activity | 101% |
| O=C(c1ccc(OCCN2CCCCC2)cc1)c1c(-c2ccc(O[C@@H]3O[C@H](C(=O)O)[C@@H](O)[C@H](O)[C@H]3O)cc2)sc2cc(O)ccc12 | SLCO1B3 | substrate | HEK293 expressing SLCO1B3 | pH 7.4 |  | intrinsic clearance | 3.3 µL/min/mg protein |
| CNc1nc(N)nc2c1ncn2[C@@H]1O[C@H](CO)[C@@H](O)[C@@]1(C)F | ABCG2 | bidirectional transport | MDCKII transfected with human BCRP | 10 µM |  | efflux ratio | 3.97 ± 0.29 |
| COc1cccc(OC)c1-c1cc(C(=O)NC2(C(=O)O)C3CC4CC(C3)CC2C4)nn1-c1ccc(C(=O)N(C)CCCN(C)C(=O)[C@H](CCCCNC(=O)[C@H](CC(C)C)NC(=O)C2OC2C(=O)O)NC(=O)CN2CCN(CC(=O)[O-])CCN(CC(=O)[O-])CCN(CC(=O)[O-])CC2)cc1C(C)C.[177Lu+3] (mixture of isomers) | HT-29 tumour model |  | host not given, bone | 4 h, tumour-bearing |  | tracer uptake | 0.41 %ID/g |
| CC(C)OCCOCc1ccc(OCC(O)CN(N=O)C(C)C)cc1 (centres unmarked) | Salmonella typhimurium | Ames test | TA100 | 158 µg/plate, without metabolic activation | baseline: solvent control | revertant fold increase | 0.9 fold |
| O=C1C2CC3CC1CC(C(=O)N1CCN(c4ccc([N+](=O)[O-])c5ncccc45)CC1)(C3)C2 | Salmonella typhimurium | Ames test | TA100 | 0.78 µg/well, with S9 | baseline: vehicle | revertant fold increase | 1 |
| N#C[C@@H]1CC(F)(F)CN1C(=O)CNC(=O)c1ccnc2c(NC(=O)[C@H](CCCCNC(=O)CCOCCOCCOCCOCCOCCOCCNC(=O)CN3CCN(CC(=O)[O-])CCN(CC(=O)[O-])CCN(CC(=O)[O-])CC3)NC(=O)CCCc3ccc(I)cc3)cccc12.[177Lu+3] | U-87 MG tumour model |  | host not given, blood | 24 h, tumour-bearing |  | tracer uptake | 4.22 %ID/g |
| O=C1c2sc(-c3ccc(N4CCC(F)C4)nc3F)nc2CCN1c1cccnc1 (centres unmarked) |  | HPLC | rhesus monkey, plasma | intravenous, 14.98 min |  | parent fraction | 0.553 |
| CNc1nc(N)nc2c1ncn2[C@@H]1O[C@H](CO[P@](=O)(O)N[C@@H](C)C(=O)O)[C@@H](O)[C@@]1(C)F | ABCG2 | bidirectional transport | MDCKII transfected with human BCRP | 10 µM |  | Papp A to B | 1.11 ± 0.12 ×10⁻⁶ cm/s |
| C=C(NC(=O)c1csc(-c2nc3c(cc2O)-c2nc(cs2)C(=O)NC(C(C)O)C(=O)NC(=C(C)OC)c2nc(cs2)C(=O)NC2c4nc(cs4)C(=O)NC(COC(=O)c4c5c6c(cccc6n4O)COC(=O)C(OC4CC(C)(O)C(N(C)C)C(C)O4)C2OC5)c2nc-3cs2)n1)C(N)=O (centres unmarked) |  |  | female cynomolgus monkey, plasma | intravenous, 3 mg/kg, single dose, infusion |  | Tmax | 21.6 min |
| CCN(CC)CC#CCNc1ccnc2cc(Cl)ccc12 | Salmonella typhimurium | mini-Ames test | TA100 | 1000.0 µg/well, with rat liver S9 |  | revertants per well | 10 |
| CN1CCCNC(=O)c2cccc(c2)C(=O)NCCCN(C)CCCNc2cccc3c2C(=O)c2cccc(c2C3=O)NCCC1 | Ca9-22 | cell growth or viability, CCK-8 |  | 1 nM, 48 h |  | viability | 101% |
| CC(C)Cc1ccc(C(C)C(=O)N[C@@H](CCCCNC(=O)CCOCCOCCOCCOCCOCCOCCNC(=O)CN2CCN(CC(=O)[O-])CCN(CC(=O)[O-])CCN(CC(=O)[O-])CC2)C(=O)Nc2cccc3c(C(=O)NCC(=O)N4CC(F)(F)C[C@H]4C#N)ccnc23)cc1.[177Lu+3] (some centres unmarked) | U-87 MG tumour model |  | host not given, stomach | 1 h, tumour-bearing |  | tracer uptake | 3.15 %ID/g |
| C[C@@]1(F)[C@H](O)[C@@H](CO)O[C@H]1n1cnc2c(=O)[nH]c(N)nc21 | ABCG2 | bidirectional transport | MDCKII transfected with human BCRP | 10 µM |  | Papp B to A | 3.81 ± 0.17 ×10⁻⁶ cm/s |
| O=C(Nc1cnccc1-c1ccc([18F])nc1)c1ccnc(NC(=O)C2CC2)c1 |  |  | mice, transgenic, GSK-3β, early-stage, spleen | intravenous, dose not given, 120 min |  | SUV | 0.161 |
| N#Cc1cccc(-c2ccc(=O)n(Cc3cccc(-c4ncc(OCC5CCN(CC(=O)N6CCN(c7ccc8c(c7)C(=O)N(C7CCC(=O)NC7=O)C8=O)CC6)CC5)cn4)c3)n2)c1 (centres unmarked) | Caco-2 | transwell monolayer |  | 2 µM, 120 min, pH 7.4, 0.1% DMSO, together with: GF120918 10 µM |  | efflux ratio | 2.09 |
| COc1cccc(OC)c1-c1cc(C(=O)NC2(C(=O)O)C3CC4CC(C3)CC2C4)nn1-c1ccc(C(=O)N(C)CCOCCN(C)C(=O)[C@H](CCCCNC(=O)[C@H](CC(C)C)NC(=O)C2OC2C(=O)O)NC(=O)CN2CCN(CC(=O)[O-])CCN(CC(=O)[O-])CCN(CC(=O)[O-])CC2)cc1C(C)C.[177Lu+3] (mixture of isomers) | HT-29 tumour model |  | host not given, stomach | 7 days, tumour-bearing |  | tracer uptake | 0.13 %ID/g |
| N#C[C@@H]1CCCN1C(=O)CNC(=O)c1ccnc2ccc(OCCCN3CCN(C(=O)CCc4ccc5c(c4)CN4CCN(Cc6cc(CCC(=O)O)ccc6O)CC(=O)[O][Al-]([18F])([O]C(=O)C4)[O]5)CC3)cc12 (some centres unmarked) | U-87 MG tumour model |  | host not given, liver | 2 h, tumour-bearing |  | tracer uptake | 0.95 %ID/g |

A few entries again:
| SMILES | tested on | test | system | conditions | scale | quantity | result |
| --- | --- | --- | --- | --- | --- | --- | --- |
| C[C@@]1(F)[C@H](O)[C@@H](CO)O[C@H]1n1cnc2c(=O)[nH]c(N)nc21 | ABCG2 | bidirectional transport | MDCKII transfected with human BCRP | 10 µM |  | Papp B to A | 3.81 ± 0.17 ×10⁻⁶ cm/s |
| COc1cccc(OC)c1-c1cc(C(=O)NC2(C(=O)O)C3CC4CC(C3)CC2C4)nn1-c1ccc(C(=O)N(C)CCOCCN(C)C(=O)[C@H](CCCCNC(=O)[C@H](CC(C)C)NC(=O)C2OC2C(=O)O)NC(=O)CN2CCN(CC(=O)[O-])CCN(CC(=O)[O-])CCN(CC(=O)[O-])CC2)cc1C(C)C.[177Lu+3] (mixture of isomers) | HT-29 tumour model |  | host not given, stomach | 7 days, tumour-bearing |  | tracer uptake | 0.13 %ID/g |
